Published values gathered from unrelated publications.
A part holds a random share of what one study measured. Changes are numbered by the printed parent chain.

Sample 1
Target: ABI1, truncated, D143A, DHFR fusion (Arabidopsis thaliana)
Technique: DHFR PCA, deep sequencing
Medium: yeast
Setting: methotrexate growth selection, single substitutions
Together with: (+)-ABA 4.8 µM
Relative to: wild-type fitted maximum
Direction: higher = stronger binding
Measurement: relative binding score
Starting sequence: PYL1, truncated, DHFR fusion (Arabidopsis thaliana); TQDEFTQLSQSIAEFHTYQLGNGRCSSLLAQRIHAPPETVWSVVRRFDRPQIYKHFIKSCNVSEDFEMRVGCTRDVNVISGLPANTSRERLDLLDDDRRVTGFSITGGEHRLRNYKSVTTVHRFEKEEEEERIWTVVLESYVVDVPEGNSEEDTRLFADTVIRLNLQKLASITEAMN
D65C: 56.3%
C25E: 9.15%
N177C: 85.9%
G23L: 25.6%
F157T: -2.28%
F103K: -11.3%

Sample 2
Target: Histone acetyltransferase KAT6A, both winged helices, GST fusion (KAT6A, Homo sapiens, UniProt Q92794, residues 1-181)
Technique: protein binding microarray
Form: double-stranded DNA, one strand shown
Medium: in vitro
Tested at: not given
Setting: 8-mer, flanks averaged, mean of 2 arrays, mostly near background
Relative to: not given
Direction: higher = stronger binding
Measurement: E-score
Target sequence (chain): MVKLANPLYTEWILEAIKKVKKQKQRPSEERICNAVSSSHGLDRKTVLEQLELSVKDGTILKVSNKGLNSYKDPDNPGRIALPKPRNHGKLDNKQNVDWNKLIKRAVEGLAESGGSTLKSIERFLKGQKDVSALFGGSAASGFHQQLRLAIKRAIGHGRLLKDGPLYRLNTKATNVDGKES
CCCGCTTC: 0.104
CATGATAG: -0.0698
AGACCTAC: -0.0753
CGGTGCTC: 0.0522
GCAACGGA: 0.239
CTATTTAC: -0.117
ACTTTTCG: -0.0395
ACTTGGAG: -0.182
ATTGTCTG: -0.046

Sample 3
Target: CCNA2, cyclin fold, Cln2 fusion (human)
Technique: yeast growth competition, sequencing
Medium: yeast
Setting: weak parent motif
Relative to: not given
Direction: higher = stronger binding
Measurement: normalised enrichment score
Starting sequence: MASTL docking peptide (human); PMIAKNLMCELDE
M2I: -0.162
N6T: 0.168
C9G: 0.0282
D12V: 0.162
K5D: -0.127

Mixed results
PhoQ, residues 284 288 289 292 302 303 NSMLDC
fold induction (PhoP, residues 12 14 15 18 19 NQGLL (Escherichia coli, UniProt P23836); Sort-seq, item: YFP reporter; E. coli; PhoQ-PhoP variant library, together with: 10 µM Mg2+; relative to: high Mg2+ state, higher = stronger signaling): 8.15

For quick reference, copied from above (sample 2):
CCCGCTTC: 0.104
GCAACGGA: 0.239
AGACCTAC: -0.0753
